Measured values from different studies.
Parts stem from different laboratories: compare values within a part only. Positions count from the first letter of the parent shown.

Study 1
Target: Sal-like protein 4, full length isoform B (SALL4, Homo sapiens, UniProt Q9UJQ4-2, residues 1-616)
Technique: universal PBM
Molecule type: double-stranded DNA, one strand shown
Medium: in vitro
Tested at: not given
Notes: 8-mer, flanks averaged, mean of replicates
Reading: higher = stronger binding
Target sequence (chain): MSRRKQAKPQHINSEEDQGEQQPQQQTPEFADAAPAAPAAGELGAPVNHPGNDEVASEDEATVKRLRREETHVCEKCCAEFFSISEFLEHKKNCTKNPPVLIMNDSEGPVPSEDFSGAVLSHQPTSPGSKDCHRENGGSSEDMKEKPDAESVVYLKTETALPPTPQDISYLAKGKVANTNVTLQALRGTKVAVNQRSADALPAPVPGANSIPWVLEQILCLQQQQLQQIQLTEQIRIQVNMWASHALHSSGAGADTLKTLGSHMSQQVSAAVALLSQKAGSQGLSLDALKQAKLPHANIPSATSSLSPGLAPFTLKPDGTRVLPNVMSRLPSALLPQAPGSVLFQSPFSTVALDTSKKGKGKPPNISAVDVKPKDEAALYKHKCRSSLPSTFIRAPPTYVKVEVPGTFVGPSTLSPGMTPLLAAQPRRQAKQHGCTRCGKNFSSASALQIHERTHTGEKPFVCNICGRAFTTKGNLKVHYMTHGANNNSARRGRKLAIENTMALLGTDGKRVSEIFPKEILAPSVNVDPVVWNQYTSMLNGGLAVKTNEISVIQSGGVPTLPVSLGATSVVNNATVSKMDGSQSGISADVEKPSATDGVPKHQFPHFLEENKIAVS
`ATGTATGC` has an E-score of 0.267.
`GTACCGAA` has an E-score of -0.0958.
The E-score of `ACGGAGTA` is reported as -0.0303.
With `AAGTGCGC` the E-score was -0.201.
For `GTGGGTGA`, the E-score was -0.0167.
The E-score of `AGGCGTCC` is reported as -0.227.

Study 2
Target: Ras GTPase-activating protein-binding protein 1, full length (G3BP1, Homo sapiens, UniProt Q13283)
Chain of UniProt Q13283 (whole entry, looked up): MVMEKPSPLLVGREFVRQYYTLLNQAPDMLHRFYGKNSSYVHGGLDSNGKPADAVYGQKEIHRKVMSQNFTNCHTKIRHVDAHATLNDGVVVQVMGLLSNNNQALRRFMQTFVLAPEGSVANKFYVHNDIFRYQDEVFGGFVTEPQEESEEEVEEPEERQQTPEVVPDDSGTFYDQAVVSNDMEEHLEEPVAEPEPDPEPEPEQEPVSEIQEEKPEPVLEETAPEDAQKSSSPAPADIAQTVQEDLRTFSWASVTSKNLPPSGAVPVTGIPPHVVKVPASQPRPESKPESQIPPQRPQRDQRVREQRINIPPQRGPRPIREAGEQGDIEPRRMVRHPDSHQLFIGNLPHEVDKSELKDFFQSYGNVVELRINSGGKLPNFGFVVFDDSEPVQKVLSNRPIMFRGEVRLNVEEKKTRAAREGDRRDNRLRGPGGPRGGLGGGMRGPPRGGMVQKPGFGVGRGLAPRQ
Technique: RNA Bind-n-Seq
Molecule type: RNA
Medium: in vitro
Tested at: 200 nM
Notes: whole 134-nt RNA, ends assumed
Together with: 150 mM LiCl
Reference: input library
Reading: higher = stronger binding
All molecules: 7-deaza-guanosine replaces G
Constant ends, left off below: GGGAGUUCUACAGUCCGACGAUC … UGGAAUUCUCGGGUGUCAAGG
With `CACAGACAACACGCACCCACACAGACACAGAGGGAAGGGGUUGGGAUGGGGACAGGAAACACAGCAGGGCGGGGUAGGACCCCAGCCCCU` the log2 enrichment was -0.242.
With `UCAAGUCCUGUGCUACACAUCGUAUGUACCGAAUCGGGAAGGGAAGGGGAAGGGAAAGUAUUAUGUUACGCCGUUCGGAUCUGCACUUCC` the log2 enrichment was -0.604.
`AGUCCUGUGCUACACAUCGUAUGUACCGAAUCGGGGAAAAGGGAAAAGGAAAAGGGGAAAGUAUUAUGUUACGCCGUUCGGAUCUGCACU` has a log2 enrichment of -0.398.
For `UCCUGUGCUACACAUCGUAUGUACCGAAUCAAAUUUUUUUAAAUUUUUAAAUUUUUAAAAAAGUAUUAUGUUACGCCGUUCGGAUCUGCA`, the log2 enrichment was -2.4.
`CACAGACAACACGCACCCACACAGACUCAGAGGGAAGGGGUUGGGAUGGGGACAGGGUGCACAGCAGGGCGGGGUAGGACCCCAGCCCCU` has a log2 enrichment of 0.135.
`UGGGAGGUGGAUUUUGUUUAUUAUUUUAGCUCAUUUCCAGGGGUGGGAAUUUUUUUUUAAUAUGUGUCAUGAAUAAAGUUGUUUUUGAAA` gave a log2 enrichment of -0.607.
`ACCAUGCAGGUGGGCAUGUUUGGGAAGUGGGGCAAGGGGGGGAUAGGGAGGGGGGUAACACUUUGGGAACAGGUGGUCCCAGGUCGUUUC` has a log2 enrichment of 0.484.
With `UUCCUCAAGUCCUGUGCUACACAUCGUAUGUACCGAAUCGGGAGGAGGAGGAAAGUAUUAUGUUACGCCGUUCGGAUCUGCACUUCCAGC` the log2 enrichment was -1.26.
With `ACCAUGCAGGUGGGCAUCUUUGGGAAAAGGGGCAAGGGGGGGAUAGGGAGGGGGGUAACACUUUGGGAACAGGUGGUCCCAGGUCGUUUC` the log2 enrichment was 0.24.
With `UGGCCCUGGUGGCAUGCGGGGAGGAAGAGCUGGCCUCAUGGAUCGUGGUGGUCCCGGUGGAAUGUUCAGAGGUGGCCGUGGUGGAGACAG` the log2 enrichment was 0.298.

Study 3
Target: CCNF, cyclin fold, Cln2 fusion (human)
Technique: yeast growth competition, sequencing
Medium: yeast
Notes: strong parent motif
Reference: not given
Reading: higher = stronger binding
Starting sequence: RBL1 docking peptide (human); GSAKRRLFGEDPP
For `GSAKRRLKGEDPP [F8K]`, “normalised enrichment score” read 1.44.
`GSAKRMLFGEDPP [R6M]` — result for “normalised enrichment score”: 3.84.
`GRAKRRLFGEDPP [S2R]`: “normalised enrichment score” 7.47.
For `GSASRRLFGEDPP [K4S]`, “normalised enrichment score” read 5.53.
`GSAKRQLFGEDPP [R6Q]`: “normalised enrichment score” 4.81.

Study 4
Substance: PhoQ, residues 284 288 289 292 302 303 TNASYF
Technique: Sort-seq
Item: YFP reporter
Medium: E. coli
Notes: PhoQ-PhoP variant library
Together with: 10 µM Mg2+
Reference: high Mg2+ state
Reading: higher = stronger signaling
PhoP, residues 12 14 15 18 19 LHTVL (Escherichia coli, UniProt P23836) — fold induction: 16.4.
PhoP, residues 12 14 15 18 19 NQCAL (Escherichia coli, UniProt P23836) — fold induction: 10.
It gave 10.5 for fold induction (PhoP, residues 12 14 15 18 19 TQAML (Escherichia coli, UniProt P23836)).

Excerpt of the above (study 2):
For `UCCUGUGCUACACAUCGUAUGUACCGAAUCAAAUUUUUUUAAAUUUUUAAAUUUUUAAAAAAGUAUUAUGUUACGCCGUUCGGAUCUGCA`, the log2 enrichment was -2.4.
`CACAGACAACACGCACCCACACAGACUCAGAGGGAAGGGGUUGGGAUGGGGACAGGGUGCACAGCAGGGCGGGGUAGGACCCCAGCCCCU` has a log2 enrichment of 0.135.
`UGGGAGGUGGAUUUUGUUUAUUAUUUUAGCUCAUUUCCAGGGGUGGGAAUUUUUUUUUAAUAUGUGUCAUGAAUAAAGUUGUUUUUGAAA` gave a log2 enrichment of -0.607.
